Assay results from different studies.
“And” joins repeats or separate records; there may be more than shown.
U2AF2: U2AF2 148-342 (Homo sapiens, UniProt P26368)
Chain of UniProt P26368 (whole entry, looked up): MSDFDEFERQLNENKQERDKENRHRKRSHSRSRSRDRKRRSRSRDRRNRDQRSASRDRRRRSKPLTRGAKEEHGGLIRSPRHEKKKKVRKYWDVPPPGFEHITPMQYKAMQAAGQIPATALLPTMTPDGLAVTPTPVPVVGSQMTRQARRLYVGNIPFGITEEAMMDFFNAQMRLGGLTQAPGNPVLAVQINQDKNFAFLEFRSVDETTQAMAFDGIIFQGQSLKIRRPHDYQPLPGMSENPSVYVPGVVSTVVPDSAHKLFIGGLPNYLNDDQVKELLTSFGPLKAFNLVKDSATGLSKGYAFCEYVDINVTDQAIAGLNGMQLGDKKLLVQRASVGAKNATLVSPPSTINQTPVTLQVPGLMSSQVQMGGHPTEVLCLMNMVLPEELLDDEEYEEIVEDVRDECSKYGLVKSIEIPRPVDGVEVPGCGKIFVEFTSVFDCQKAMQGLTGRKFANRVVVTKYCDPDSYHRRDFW
B1: PLD4 60-506 (Homo sapiens, UniProt Q96BZ4); 3-phosphohistidine; sequence looked up; chain WGQVQPKDVPRSWEHGSSPAWEPLEAEARQQRDSCQLVLVESIPQDLPSAAGSPSAQPLGQAWLQLLDTAQESVHVASYYWSLTGPDIGVNDSSSQLGEALLQKLQQLLGRNISLAVATSSPTLARTSTDLQVLAARGAHVRQVPMGRLTRGVLHSKFWVVDGRHIYMGSANMDWRSLTQVKELGAVIYNCSHLAQDLEKTFQTYWVLGVPKAVLPKTWPQNFSSHFNRFQPFHGLFDGVPTTAYFSASPPALCPQGRTRDLEALLAVMGSAQEFIYASVMEYFPTTRFSHPPRYWPVLDNALRAAAFGKGVRVRLLVGCGLNTDPTMFPYLRSLQALSNPAANVSVDVKVFIVPVGNHSNIPFSRVNHSKFMVTEKAAYIGTSNWSEDYFSSTAGVGLVVTQSPGAQPAGATVQEQLRQLFERDWSSRYAVGLDGQAPGQDCVWQG
B2: SH3GL2 G276V (Homo sapiens, UniProt Q99962); sequence looked up; chain MSVAGLKKQFHKATQKVSEKVGGAEGTKLDDDFKEMERKVDVTSRAVMEIMTKTIEYLQPNPASRAKLSMINTMSKIRGQEKGPGYPQAEALLAEAMLKFGRELGDDCNFGPALGEVGEAMRELSEVKDSLDIEVKQNFIDPLQNLHDKDLREIQHHLKKLEGRRLDFDYKKKRQGKIPDEELRQALEKFDESKEIAESSMFNLLEMDIEQVSQLSALVQAQLEYHKQAVQILQQVTVRLEERIRQASSQPRREYQPKPRMSLEFPTGDSTQPNGVLSHTGTPKPSGVQMDQPCCRALYDFEPENEGELGFKEGDIITLTNQIDENWYEGMLHGHSGFFPINYVEILVALPH
B3: protein S723T (Penicillium verruculosum, UniProt A0A348FUE1); sequence looked up; chain MSPMDLQESAAALVRQLGERVEDRRGFGFMSPAIYDTAWVSMISKTIDDQKTWLFAECFQYILSHQLEDGGWAMYASEIDAILNTSASLLSLKRHLSNPYQITSITQEDLSARINRAQNALQKLLNEWNVDSTLHVGFEILVPALLRYLEDEGIAFAFSGRERLLEIEKQKLSKFKAQYLYLPIKVTALHSLEAFIGAIEFDKVSHHKVSGAFMASPSSTAAYMMHATQWDDECEDYLRHVIAHASGKGSGGVPSAFPSTIFESVWPLSTLLKVGYDLNSAPFIEKIRSYLHDAYIAEKGILGFTPFVGADADDTATTILVLNLLNQPVSVDAMLKEFEEEHHFKTYSQERNPSFSANCNVLLALLYSQEPSLYSAQIEKAIRFLYKQFTDSEMDVRDKWNLSPYYSWMLMTQAITRLTTLQKTSKLSTLRDDSISKGLISLLFRIASTVVKDQKPGGSWGTRASKEETAYAVLILTYAFYLDEVTESLRHDIKIAIENGCSFLSERTMQSDSEWLWVEKVTYKSEVLSEAYILAALKRAADLPDENAEAAPVINGISTNGFEHTDRINGKLKVNGTNGTNGSHETNGINGTHEIEQINGVNGTNGHSDVPHDTNGWVEEPTAINETNGHYVNGTNHETPLTNGISNGDSVSVHTDHSDSYYQRSDWTADEEQILLGPFDYLESLPGKNMRSQLIQSFNTWLKVPTESLDVIIKVISMLHTATLLIDDIQDQSILRRGQPVAHSIFGTAQAMNSGNYVYFLALREVQKLQNPKAISIYVDSLIDLHRGQGMELFWRDSLMCPTEEQYLDMVANKTGGLFCLAIQLMQAEATIQVDFIPLVRLLGIIFQICDDYLNLKSTAYTDNKGLCEDLTEGKFSFPIIHSIRSNPGNRQLINILKQKPREDDIKRYALSYMESTNSFEYTRGVVRKLKTEAIDTIQGLEKHGLEENIGIRKILARMSLEL
B4: naaA apo 1-425 (Bradyrhizobium sp., UniProt D3WZ85); selenomethionine; chain MAGSNDVAKVMKTLDGMREGLIQTAVELGSIEAPTGREGAAGDYVYEWMARNGFGPERVGVFDDRFNVVGRLRGTGGGASLSFNSHLDTIMAREDTARFADANDRIYHEAWHEEGRIYGYSVVNCKGPMACWLIAAKALKEAGAALKGDVVLTAVCGEIDCEPVDEFQGHDYLAEDIGARYAISHGAISDYALVAEATNFKPAWVEAGKVFLKVTVFAGPSRYTPYVPRPVAALDSPNAIVRMAKLVEALEEWADNYEKRYTREYGGGTVVPKVAIGAIRGGVPYKIYRFPELCSIYMDIRLNPDTNPLVVQREVEAVVSKLGLKAEVKPFLFRRGYEAQGIEPLQNALEVAHREVVGRPTERPGSPECSMWRDTNPYNELGIPSLTYGCGGGAGGGNTYFLVDDMLKAAKVYAMTAMDLCNRTP
B5: IFNG 24-156 (Homo sapiens); chain MQDPYVKEAENLKKYFNAGHSDVADNGTLFLGILKNWKEESDRKIMQSQIVSFYFKLFKNFKDDQSIQKSVETIKEDMNVKFFNSNKKKRDDFEKLTNYSVTDLNVQRKAIHELIQVMAELSPAAKTGKRKRSQAAA
B6: Nefl 85-415 (Mus musculus, UniProt P08551); sequence looked up; chain SIRTQEKAQLQDLNDRFASFIERVHELEQQNKVLEAELLVLRQKHSEPSRFRALYEQEIRDLRLAAEDATNEKQALQGEREGLEETLRNLQARYEEEVLSREDAEGRLMEARKGADEAALARAELEKRIDSLMDEIAFLKKVHEEEIAELQAQIQYAQISVEMDVSSKPDLSAALKDIRAQYEKLAAKNMQNAEEWFKSRFTVLTESAAKNTDAVRAAKDEVSESRRLLKAKTLEIEACRGMNEALEKQLQELEDKQNADISAMQDTINKLENELRSTKSEMARYLKEYQDLLNVKMALDIEIAAYRKLLEGEETRLSFTSVGSITSGYSQ
B7: aqpZ 1-231 F13A (Escherichia coli, UniProt P60844); chain MFRKLAAECFGTAWLVFGGCGSAVLAAGFPELGIGFAGVALAFGLTVLTMAFAVGHISGGHFNPAVTIGLWAGGRFPAKEVVGYVIAQVVGGIVAAALLYLIASGKTGFDAAASGFASNGYGEHSPGGYSMLSALVVELVLSAGFLLVIHGATDKFAPAGFAPIAIGLALTLIHLISIPVTNTSVNPARSTAVAIFQGGWALEQLWFFWVVPIVGGIIGGLIYRTLLEKRD
B8: PAN1 689-1190 (Saccharomyces cerevisiae, UniProt P32521); sequence looked up; chain LLDNLKNQLKTEPTTTKEKPSFGKIDALSYKNNDDDVLPNYRNRRKVYSAKNEEQSSFSSPSAKSVNHSSSTLQTDDISVDKTVEKKTAKPKYAGFSREINLKNIASLENEIKNISNPENCYDSSIPSDLTSRFDAIIAKLPNLFNEISTIDNEITNAKIQLYRKKNPSSIIGSGPNGEITENDRKKAKSRALLRARMSALTGKSTESEDSLSMEDEQQSAEIKRIQQENGKNQEIIKDIRSSISDISASLKSTMTGSNMISNQEFERWEFGIGLEDGVREFLDDLKSNSNKSVTESSPFVPSSTPTPVDDRSSSPSYSQFKTAEERAAYLKEQAKKRMKEKLAKFDKNRRNVTQSSRSISSENSREQPQQIAGSSNLVEPRATPFQEEKYVEVAQPTQPVQSTQPVQPTQPVQPTQPVQPTQPVQPTQPVQPTQPVQNVYNAKQESDDEDEDDEEKRLQEELKRLKLKKKADKEKRLAALRKQIEDAQNESDEEETNGKDN
B9: protein 1-299 W76Y (Sulfolobus tokodaii, UniProt Q96Y14); chain MMIIVGVDAGGTKTKAVAYDCEGNFIGEGSSGPGNYHNVGLTRAIENIKEAVKIAAKGEADVVGMGVAGLDSKFDYENFTPLASLIAPKVIIQHDGVIALFAETLGEPGVVVIAGTGSVVEGYNGKEFLRVGGRGWLLSDDGSAYWVGRKALRKVLKMMDGLENKTILYNKVLKTINVKDLDELVMWSYTSSCQIDLVASIAKAVDEAANEGDTVAMDILKQGAELLASQAVYLARKIGTNKVYLKGGMFRSNIYHKFFTLYLEKEGIISDLGKRSPEIGAVILAYKEVGCDIKKLISD
B10: encD (Myxococcus xanthus, UniProt Q1D9P3); sequence looked up; chain MAKNSNPSAFDRDFGYLMPFLDRVAAAASDLEDASARAELTRLMVEEKARWQRIQELLGGAGGRGAAAPTPAREAPAEAPRLARGSADELHEAAPFATGLTVGSLRGSR
B11: yjoB (Bacillus subtilis, UniProt O34703); sequence looked up; chain MTNIPFIYQYEEKENERAAAGYGTFGYLITRIEETLYDQYGVFYELYASDDPNTEYWELLVEDVRSGSLEPEHVAYIFEKLEKKTFAYDEDEKEPDYTVHKSIRNSVYAYPEKGVAFARIPYFQDGSIMSFDCLFAVNDEKMRAFLEGVRPRLWEKSKRKVTVFTDGDGGTSREQEAIVREVQRSQVIMNPLLKKEIYRSIDQFFHSDKSFYQTYDIPYKRGILLYGPPGNGKTTLVKSIAGSIDAPVAYWQITEFTSSETIEEVFQAARRLAPAVLVIEDIDSMPEDVRSFFLNTLDGATSKEGLFLIGTTNYPEEIDPGLMNRAGRFDRAYEIGLPDEELRLEYMKMRGFGIFLSEGEIKNAAKLTEGFSFAQLGELYVSSALQWHQEGNHHIETMVKDMTGEQRKSQRGSWMERNKVGFH
B12: ADSL R303C (Homo sapiens, UniProt P30566); sequence looked up; chain MAAGGDHGSPDSYRSPLASRYASPEMCFVFSDRYKFRTWRQLWLWLAEAEQTLGLPITDEQIQEMKSNLENIDFKMAAEEEKRLRHDVMAHVHTFGHCCPKAAGIIHLGATSCYVGDNTDLIILRNALDLLLPKLARVISRLADFAKERASLPTLGFTHFQPAQLTTVGKRCCLWIQDLCMDLQNLKRVRDDLRFRGVKGTTGTQASFLQLFEGDDHKVEQLDKMVTEKAGFKRAFIITGQTYTRKVDIEVLSVLASLGASVHKICTDIRLLANLKEMEEPFEKQQIGSSAMPYKRNPMRSECCCSLARHLMTLVMDPLQTASVQWFERTLDDSANRRICLAEAFLTADTILNTLQNISEGLVVYPKVIERRIRQELPFMATENIIMAMVKAGGSRQDCHEKIRVLSQQAASVVKQEGGDNDLIERIQVDAYFSPIHSQLDHLLDPSSFTGRASQQVQRFLEEEVYPLLKPYESVMKVKAELCL
Chain of UniProt Q00535 (whole entry, looked up): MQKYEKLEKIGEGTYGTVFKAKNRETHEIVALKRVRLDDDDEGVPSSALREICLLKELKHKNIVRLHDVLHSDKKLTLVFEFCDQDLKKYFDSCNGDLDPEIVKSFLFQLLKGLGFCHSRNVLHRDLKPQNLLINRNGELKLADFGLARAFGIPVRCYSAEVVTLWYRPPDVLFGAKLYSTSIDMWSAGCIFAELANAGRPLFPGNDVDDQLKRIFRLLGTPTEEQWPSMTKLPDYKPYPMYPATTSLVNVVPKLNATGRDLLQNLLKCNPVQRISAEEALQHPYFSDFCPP

Substance	tested on	assay	system	setting	how to read	quantity	value
GCAAGUAAC (ssRNA)	U2AF2	sequencing of bound RNA	RNA	motif only	–	Kd	6.14 µM
B1 (PLD4 60-506)	itself	X-ray crystallography	–	–	–	subunits per oligomer	2
GAUUUCUCA (ssRNA)	U2AF2	sequencing of bound RNA	RNA	motif only	–	Kd	1.25 µM
B2 (SH3GL2 G276V)	itself	SEC-SAXS	–	–	–	subunits per oligomer	2
B3 (protein S723T)	itself	cryo-EM	–	–	–	subunits per oligomer	6
B4 (naaA apo 1-425)	itself	crystal structure	–	–	–	subunits per oligomer	8
KEAYWDRCLSVINLMSSKMLQINA	Cyclin-dependent kinase 5, with p25 (CDK5, Homo sapiens, UniProt Q00535)	phosphotransferase activity, radiometric	peptide	concentration not given, 10% DMSO, with: histone substrate	baseline: p5-WT peptide	activity change	41%
B5 (IFNG 24-156)	itself	AUC	–	–	–	subunits per oligomer	2
B6 (Nefl 85-415)	itself	AUC, electron microscopy	–	–	–	subunits per oligomer	2 and 4
B7 (aqpZ 1-231 F13A)	itself	native MS	–	–	–	subunits per oligomer	4
B8 (PAN1 689-1190)	itself	SEC, sucrose gradient sedimentation	–	–	–	subunits per oligomer	2
B9 (protein 1-299 W76Y)	itself	non-reducing SDS-PAGE	–	–	–	subunits per oligomer	2
B10 (encD)	itself	AUC	–	20 °C	–	subunits per oligomer	2
B11 (yjoB)	itself	crystal structure	–	–	–	subunits per oligomer	6
B12 (ADSL R303C)	itself	SEC-MALS	–	tetramer, His-tagged	–	subunits per oligomer	4

A few entries again:
Substance	tested on	assay	system	setting	how to read	quantity	value
B4 (naaA apo 1-425)	itself	crystal structure	–	–	–	subunits per oligomer	8
B7 (aqpZ 1-231 F13A)	itself	native MS	–	–	–	subunits per oligomer	4
